Measurements gathered from unrelated publications.
Parts stem from different laboratories: compare values within a part only. Changes are numbered by the printed parent chain.

Study 1 — method: protein-binding microarray; molecule type: double-stranded DNA, one strand shown; matrix: in vitro; concentration: not given; direction: higher = stronger binding; quantity: E-score
Target: Transcriptional repressor CTCF (CTCF, Homo sapiens, UniProt P49711, residues 1-727, full length assumed)
Setting: k-mer, scored over probes, only values ≥0.25
Construct (chain): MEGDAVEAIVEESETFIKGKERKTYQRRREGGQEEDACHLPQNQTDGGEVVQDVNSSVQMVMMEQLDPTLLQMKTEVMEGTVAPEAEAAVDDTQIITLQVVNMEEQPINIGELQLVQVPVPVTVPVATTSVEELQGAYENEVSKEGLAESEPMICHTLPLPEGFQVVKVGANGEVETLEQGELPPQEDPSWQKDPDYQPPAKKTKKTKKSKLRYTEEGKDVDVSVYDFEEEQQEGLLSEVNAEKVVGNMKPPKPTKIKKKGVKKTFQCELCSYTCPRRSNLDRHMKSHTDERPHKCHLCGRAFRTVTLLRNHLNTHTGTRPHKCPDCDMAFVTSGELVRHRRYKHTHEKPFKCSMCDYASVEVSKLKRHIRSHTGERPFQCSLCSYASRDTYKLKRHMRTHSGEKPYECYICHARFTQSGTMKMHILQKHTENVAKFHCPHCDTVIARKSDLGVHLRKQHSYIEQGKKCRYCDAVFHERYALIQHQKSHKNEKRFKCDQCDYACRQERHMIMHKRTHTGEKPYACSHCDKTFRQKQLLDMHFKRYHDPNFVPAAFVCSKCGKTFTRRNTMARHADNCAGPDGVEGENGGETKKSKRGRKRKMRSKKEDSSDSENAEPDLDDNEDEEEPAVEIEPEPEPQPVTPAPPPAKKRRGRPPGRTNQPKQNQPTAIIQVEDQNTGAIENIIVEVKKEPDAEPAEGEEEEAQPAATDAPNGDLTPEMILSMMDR
ATTCATTC: 0.315
ATAATGCG: 0.375
TGTACACA: 0.26
GAAATATA: 0.333
AAAATGGA: 0.273
ATATGCGC: 0.446
AAATATGT: 0.32
TGCGGTAA: 0.263

Study 2 — cell line: HEK-293T/ACE2; concentration: concentration not given; time: 16 (unit not given); baseline: vehicle; quantity: viability
O=NN(CCCl)C(=O)NC1CCCCC1: 99.2%
CCn1cc(C(=O)O)c(=O)c2cc(F)c(N3CCNC(C)C3)c(F)c21 (stereo not shown): 100%
CCCCN1CCCC[C@H]1C(=O)Nc1c(C)cccc1C: 101%

Study 3 — target: vanadate, free oxyanion; method: microfluidic competitive inhibition; matrix: in vitro, cell-free expressed; concentration: not given; direction: lower = stronger binding; quantity: oxyanion analog dissociation constant
Setting: derived from inhibition constants, unchanged parent 676 nM
Starting sequence: PafA, mature enzyme, eGFP fusion (Elizabethkingia meningoseptica, UniProt Q9KJX5); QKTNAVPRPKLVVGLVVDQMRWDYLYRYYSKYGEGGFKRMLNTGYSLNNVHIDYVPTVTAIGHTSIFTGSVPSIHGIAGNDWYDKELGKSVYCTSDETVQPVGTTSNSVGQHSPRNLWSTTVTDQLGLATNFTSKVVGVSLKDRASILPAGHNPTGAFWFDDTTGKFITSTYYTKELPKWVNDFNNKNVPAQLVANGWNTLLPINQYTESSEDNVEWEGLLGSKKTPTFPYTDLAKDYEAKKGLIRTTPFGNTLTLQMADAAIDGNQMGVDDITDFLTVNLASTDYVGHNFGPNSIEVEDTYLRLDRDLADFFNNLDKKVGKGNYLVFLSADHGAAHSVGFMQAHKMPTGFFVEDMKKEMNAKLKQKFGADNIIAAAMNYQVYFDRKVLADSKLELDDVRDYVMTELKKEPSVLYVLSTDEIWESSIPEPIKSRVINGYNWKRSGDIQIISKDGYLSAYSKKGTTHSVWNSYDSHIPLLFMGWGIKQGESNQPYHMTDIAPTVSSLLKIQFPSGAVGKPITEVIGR
S30G: 651 nM
G514A: 667 nM
E97G: 759 nM
Y439V: 783 nM
V287A: 1.33 µM
D446G: 714 nM
K461V: 683 nM
P114V: 645 nM
M496G: 406 nM
E424V: 899 nM
R443V: 780 nM
V353A: 904 nM
T98V: 646 nM
R39V: 690 nM
I263G: 2.61 µM
L407G: 637 nM
K241G: 672 nM
M360V: 802 nM
F158V: 681 nM
L254V: 694 nM
V413G: 1.33 µM
A335G: 598 nM
E212V: 720 nM
R144V: > 182 µM
N196G: 969 nM

Study 4 — target: CCND1, cyclin fold, Cln2 fusion (human); method: yeast growth competition, sequencing; matrix: yeast; setting: weak parent motif; baseline: not given; direction: higher = stronger binding; quantity: normalised enrichment score; starting sequence: viral docking peptide; TSVRRALFTGGSD
TSVRNALFTGGSD [R5N]: 0.288
TSWRRALFTGGSD [V3W]: 0.412
TSVRRALFTGGSA [D13A]: 0.411
TCVRRALFTGGSD [S2C]: 0.41
TSHRRALFTGGSD [V3H]: 0.117
TSVRRALPTGGSD [F8P]: 0.0738
TSVRRALFTNGSD [G10N]: 0.547
TSVRRALFTIGSD [G10I]: 0.395
TSVRRACFTGGSD [L7C]: 0.0765
TSVLRALFTGGSD [R4L]: 0.653
TSVRRAGFTGGSD [L7G]: 0.0131
TSVIRALFTGGSD [R4I]: 0.87
TSVRRELFTGGSD [A6E]: 0.747
TSVRRTLFTGGSD [A6T]: 0.134
TSVRRALYTGGSD [F8Y]: -0.167
TSVRPALFTGGSD [R5P]: 0.85
TSVRRALFPGGSD [T9P]: 0.221
TSVRRALFLGGSD [T9L]: 0.474
TPVRRALFTGGSD [S2P]: 0.315
TSVRRALHTGGSD [F8H]: -0.113
TSVRRAEFTGGSD [L7E]: 0.232
TSVRRALFTAGSD [G10A]: 0.589
TSIRRALFTGGSD [V3I]: 0.506
TSVRRALFTVGSD [G10V]: 0.189
TSVRRPLFTGGSD [A6P]: -0.0771

Excerpt of the above (study 4):
TSVRRAGFTGGSD [L7G]: 0.0131
TSVIRALFTGGSD [R4I]: 0.87
TSVRRELFTGGSD [A6E]: 0.747
TSVRRTLFTGGSD [A6T]: 0.134
TSVRRALYTGGSD [F8Y]: -0.167
TSVRPALFTGGSD [R5P]: 0.85
TSVRRALFPGGSD [T9P]: 0.221
